Results collected from several papers.
Compare with care: the assays were run in different laboratories. Several values in a cell are separate wells, animals, samples, runs or records. ± marks the error that the study gave.
UniProt P34897, sequence (whole entry, unmodified, looked up): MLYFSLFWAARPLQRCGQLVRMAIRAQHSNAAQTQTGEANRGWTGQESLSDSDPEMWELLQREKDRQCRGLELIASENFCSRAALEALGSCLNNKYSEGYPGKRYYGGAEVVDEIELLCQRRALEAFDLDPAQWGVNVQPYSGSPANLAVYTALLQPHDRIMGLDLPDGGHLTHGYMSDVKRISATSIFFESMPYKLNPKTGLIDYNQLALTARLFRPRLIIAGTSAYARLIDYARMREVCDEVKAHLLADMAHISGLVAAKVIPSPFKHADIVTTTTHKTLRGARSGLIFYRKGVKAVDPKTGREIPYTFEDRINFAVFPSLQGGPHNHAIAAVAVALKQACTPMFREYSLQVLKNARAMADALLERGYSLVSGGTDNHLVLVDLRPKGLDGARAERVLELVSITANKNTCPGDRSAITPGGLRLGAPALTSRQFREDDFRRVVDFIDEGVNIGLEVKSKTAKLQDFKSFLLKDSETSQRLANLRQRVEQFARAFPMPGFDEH

| Substance | target or system | assay | test system | conditions | scale | endpoint | value |
| --- | --- | --- | --- | --- | --- | --- | --- |
| mycosubtilin |  | calcein leakage | DOPC/CHOL liposomes | concentration not given, added: 20 wt% PEG-8000 |  | leakage time constant | 14 ± 3 min |
| Met-enkephalin-Arg-Phe |  | antinociception, tail-flick | male ICR-CD1 mice | intracerebroventricular, 50 µg/animal, 60 min |  | maximum possible effect | -7.13% and 7.83% and 20.7% and 3.42% and 1.19% and 14.8% and 13.4% and 13% |
| tetrahydrofolate | SHMT2 (Homo sapiens, UniProt P34897, Y105F) | enzyme activity, substrate, MTHFD2-coupled NADH fluorescence |  | Y105F mutant |  | Vmax | 85 fluorescence units/s |
| KKPRPWPWKRRKK |  | absorbance at 734 nm | peptide | 1 mg/mL, 5 min, room temperature |  | ABTS radical scavenging | 0.721 fraction (0-1) |
| GWTLNSAGYLLGPRRIDHLLMIKEMPIARGREEAPGA / YAVDNHRSFNDKHGFT-NH2 (C-amide) |  | RT-qPCR, refers to: Tgfb1 | chicken, DSS-induced colitis, ileum | ip, 50 µM, unit not given | relative to: Actb | mRNA level | 0.0972 and 0.121 and 0.0853 and 0.106 and 0.0936 and 0.103 and 0.0689 |
| KKGLGGKLLACKG |  | absorbance at 734 nm | peptide | 1 mg/mL, 5 min, room temperature |  | ABTS radical scavenging | 0.927 fraction (0-1) |
| colistin | Aspergillus fumigatus |  | conidia | 5 µM, added: caspofungin 0.2 µg/mL | relative to: caspofungin alone | CFU relative to caspofungin alone | 2.41 and 3.28 and 1.11 |
| polymyxin B |  | calcein leakage | DOPC/CHOL liposomes | concentration not given, added: 20 wt% PEG-8000 |  | maximum fusion | 61 ± 7% |
| GLCGKGGKCCCGC |  | absorbance at 734 nm | peptide | 1 mg/mL, 5 min, room temperature |  | ABTS radical scavenging | 0.916 fraction (0-1) |
| amyloid β-peptide (1–28) |  | substrate, LC-MS | phosphate buffer | 10 µM, 4 h, pH 7.4, 25 °C, added: MINP(β1–14) 1 equiv |  | remaining substrate | 75.4 ± 2.6% |
| aspterric acid |  | hypocotyl length | Arabidopsis thaliana Col-0 seeds | 3.125 µg/mL, 7 days, dark |  | inhibition | 22.7% |
| nonaarginine | PorA peptide pore | peptide binding, planar bilayer single-channel recording |  | 0.5 µM, pH 7.4, +5 mV, trans side, 150 mM KCl |  | koff | 11.8 ± 2 s⁻¹ |
| KLKGLLGGKKKLK |  | absorbance at 734 nm | peptide | 1 mg/mL, 5 min, room temperature |  | ABTS radical scavenging | 0.178 fraction (0-1) |
| hexaarginine | PorA peptide pore | peptide binding, planar bilayer single-channel recording |  | 0.5 µM, pH 7.4, -20 mV, cis side, 150 mM KCl |  | koff | 3450 ± 340 s⁻¹ |
| GWTLNSAGYLLGPHAVDNHRSFNDKHGFT-NH2 (C-amide) |  |  | peptide, Arrb2 flox control mice, DSS colitis | ip, 3 µM, 2% DSS |  | colon length | 5.7 cm and 5.6 cm and 5.9 cm and 5.2 cm and 5.4 cm |
| CRQLRKGKFFSEGGSGGTSFEQFWAWLWP |  | flow cytometry | peptide, Renca syngeneic tumour, mouse | 2.5 mg/kg, 10 days |  | CD8+ T cells in tumour-infiltrating lymphocytes | 25.1% |
| insulin human |  | refers to: MAPK14 mRNA | EcoHIV-infected mouse, brain | i.p., dose not given | relative to: PBS | fold change | 1.02 |
| DPDPE |  | RP-HPLC | HALO Phenyl-hexyl column | 25 µM, acetic acid/acetonitrile, 10 min gradient |  | retention time | 5.32 min |
| EALYLVCGE |  | tetramer binding, flow cytometry | peptide, tetramer-binding CD4+ thymocytes, female NOD mice, 6 weeks, thymus | dose not given |  | FOXP3+ Treg cells | 82.6% and 86.4% and 43.8% and 76% and 61.5% and 53.3% |
| Polymyxin B |  |  | mouse, serum | 20 mg/kg |  | NGAL level | 46.2 ng/mL |
| endothelin-1 |  | ETA-dependent contraction, agonist | isolated mesenteric vein | concentration not given, secreted by PC-3 cells, added: conditioned medium of PC-3 cells |  | contraction | active |
| fengycin |  | calcein leakage | DOPC/CHOL liposomes | concentration not given, added: 20 wt% PEG-8000 |  | leakage time constant | 13 ± 7 min |
